Results pooled from the literature.
Parts stem from different laboratories: compare values within a part only. Changes are numbered by the printed parent chain.

Sample 1 — target: CCNA2, cyclin fold, Cln2 fusion (human); method: yeast growth competition, sequencing; matrix: yeast; setting: strong parent motif; relative to: not given; reading: higher = stronger binding
Starting sequence: PKMYT1 docking peptide (human); SFEPRNLLSLFED; partner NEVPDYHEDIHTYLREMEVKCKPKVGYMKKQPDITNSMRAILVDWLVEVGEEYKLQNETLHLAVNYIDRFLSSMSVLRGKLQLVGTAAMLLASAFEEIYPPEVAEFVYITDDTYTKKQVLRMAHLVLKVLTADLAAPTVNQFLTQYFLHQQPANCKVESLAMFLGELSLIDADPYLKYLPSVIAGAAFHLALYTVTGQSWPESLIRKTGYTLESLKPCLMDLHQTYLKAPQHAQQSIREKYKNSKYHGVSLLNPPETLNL
Substitution	normalised enrichment score
E12A	1.83
S9M	1.94
F2Y	2
R5L	0.362
L7R	-0.786
L7F	-1.09
F11N	-0.222
P4L	-0.61
P4A	0.116
E3L	3.93
F2P	-0.535
L8T	1.51
E3I	3.56
E3G	2.25
S1Q	3.42
S9A	2.72
F2D	0.0755
S1I	2.62
S1E	1.92
E3N	2.84
F11I	0.115
D13E	2.72
L10M	2.59
S1G	4.06
L7V	-0.72

Sample 2 — method: RNA Bind-n-Seq; molecule type: RNA; matrix: in vitro; concentration: 365 nM; relative to: no-protein control; reading: higher = stronger binding
Target: RNA binding protein fox-1 homolog 2, RRM domain, GST-SBP tag (RBFOX2, Homo sapiens, UniProt O43251-10, residues 100-194)
Setting: natural RNA segment, single round, ends assumed
Shared flanks, not repeated: GGGAGUUCUACAGUCCGACGAUC … UGGAAUUCUCGGGUGCCAA
Residues (chain): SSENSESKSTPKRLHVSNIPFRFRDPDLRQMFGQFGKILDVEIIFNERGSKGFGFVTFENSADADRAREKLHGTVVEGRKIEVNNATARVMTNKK
Sequence	RBNS enrichment (R)
AAUGCCUUUAAUUCUUGUCUGAGAAUCUUGGCCAUGUGUCAGAUUAUCAGAACAAUUUUGUUACCAGGUCAGAAAUUGUGUUCUUUGACAACAGAUUGGAUCUGUAAUGU	0.299
GCUGGGACCCUCGCCCACUCCACGCAGGACCCGGGUCUGCGCACCUGCCGAGCGGCUGCUGGAGUCUGGAGCCAUCGCAUUGCGGGUGUAGCAGCGCAUCAGGCUUGAGA	0.471
UUAUAUUAAUUGCCAAUAUAAGUAAAUAUAGAUUAUAUAUGUAUAGUGUUUCACAAAGCUUAGACCUUUACCUUCCAGCCACCCCACAGUGCUUGAUAUUUCAGAGUCAG	0.754
CAGGACACAGGAAGCUCAGGCGCAGAGGCGGAGGAGCAAGCUGGCACCGAGAAGACAAGGGAAGGUCUUCCCCCCAGAGGCACAUUCCUGUCCGUCUUUCUGCUGCACAC	0.994
UAGAUGAAAAAGUCUUAUUCAGAUGUAUCACAUUCAUUUUACAUUACCCACCUAUUGUCGCAUGGUAGAAUAGUUUUUUGUCUCUGAAUAUGUGAAUAACUUGACUUGCA	8.98
GACAUUAAGUAAAAUUUGGAAUCAUAAGUUGCAAUGCAGUAAAAUGGUGCUGGGGAAGGAGCCAGUUAGUGUUUCUGUGAGUUUGUGUUGUGAUGCAAUAAGAGAUAAGU	1.84
CACCCCACUCCCUGAUCUCACAAAAGUGCGAGUUUCCAGUCCUGACUAACUAGGGCUCCAGUCAGUAUUCCCCUGGCCGGCUUCCCAGAUGCCCUGGACGGCACUCUGUU	0.437
CCUGUAAGCAGGAAAAAUACGUCAAAUCAGAUAGAAUAGAGCAUUUACCAGUGGUCGAUGGCCUGGUCAGUCCUGUGCCGGGUGACUUAGGACCAGGCACGUCAGCUCUC	0.442
UAAAAAGAGUCCUACCCCCCUCUUAAGCUGCAUAUCCCGUUCAGUUUAUUGCCCCCAUGGAGUUGAGUAAGCUUUUAAGACAGGAUAGGAAAGGGUCAACACUAAGGGGA	0.479
GUCUGCCAGGGAGACAAGUACACACCUUGACUCUCAAGUUGGCAGCCCAGCCUGAAGUAGAGCUCUGACAUUAGGAGCUCUGCUUGCAAGUGUGUGAGUAUGUAUGCCUG	0.491
UGUGUGUAUGGGUGCUGUCAGUCUGCUUCAGUCUAGCCAGUCCAGUAUCUCCAAGAUGAGACUCAACAGGACUUGGAUUUUGAGAAGCCCAGGCUCUAAAUAAUAGCCUC	0.34
CUCAGCCACUGGUACUCUGAGGCCCUUGAGGCUCUUUGUAAAGCUCUUUUAUAUCUAUUGACAAAGGUGUGGGGUCUGGCAAAUGAAGUGUGCUGUUCUCAGCCUAAGAU	0.571

Sample 3 — method: competition protein-binding microarray; molecule type: double-stranded DNA, one strand shown; matrix: in vitro; concentration: 2 µM; added: Cbf1 competitor, 0.05 µM; reading: higher = stronger binding; shared flanks, not repeated: … GTCTTGATTCGCTTGACGCTGCTG
Target: Phosphate system positive regulatory protein PHO4, full length, GST-tagged (PHO4, Saccharomyces cerevisiae, UniProt P07270, residues 1-312)
Setting: whole 60-bp probe, lowest competitor level
Target sequence (chain): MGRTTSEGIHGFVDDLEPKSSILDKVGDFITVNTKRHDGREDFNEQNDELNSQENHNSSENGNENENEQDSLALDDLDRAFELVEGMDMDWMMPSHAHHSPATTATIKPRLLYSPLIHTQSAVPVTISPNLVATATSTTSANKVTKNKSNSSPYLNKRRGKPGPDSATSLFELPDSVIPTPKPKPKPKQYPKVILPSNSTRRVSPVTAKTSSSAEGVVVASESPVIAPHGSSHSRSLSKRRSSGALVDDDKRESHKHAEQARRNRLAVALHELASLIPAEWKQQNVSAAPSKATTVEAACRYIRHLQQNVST
Sequence	fluorescence intensity
TAGCCCTGTTACTGTCATGTTAGTTATTATCGTTCT	4150 a.u.
AAATATTAGGGACAGTGCGTGCCGACCCATAAGTTG	8990 a.u.
TAAGATTCGCTCAAACACATGCTCTTTCCAACGCTG	10700 a.u.
CATACCCAACCTTGAACTGTGGGTGAAGATATTTGT	4100 a.u.
AAAGCGGTAATTTTTCACGTGTGATCAAATATCTAT	13300 a.u.
GAGATGATATGTTTGCTGGTGTCGCACTGCCTTTCA	4190 a.u.
TGCGCAACAACTTGGAATGTGGGTGTATGTCTAGAA	7010 a.u.
CGGGGTTAAGTTTGTGGTGTGGGTGGCTTGCAGCAG	6870 a.u.
CCGGAATACCGAAAGCACGGGCCAGACCGAAATCGA	8160 a.u.
AAATTACTAAGTTGTCACCCTACTTACCCCGTATGA	3620 a.u.
CGGGGTTAAGTTTGGGGAGTGGGTGGCTTGCAGCAG	5180 a.u.
AGTCGTTTGAGGGCAAACGTGTGAAAATCTCCGGAA	8300 a.u.
CTTCTGTAAATTTTTCACGTGCACTGACGCGCCCCG	15300 a.u.
GAAGCATGCTGTCCTCACGGGAATTATATTGTGTGA	7980 a.u.
CGGGGTTAAGTTTGGCGGGTGGGTGGCTTGCAGCAG	5130 a.u.
GGCAAGGGTCCGTTTCGCGTGACGAATCATAGCGGG	5140 a.u.
GGATCTTTGAAAGCAGCCGTGCCGATATACACAGTA	4820 a.u.
CTTTCCCGATCTTGTCACGGAACTTTAGCACATTTG	3940 a.u.
GGAAACTCTGGCGGCCACGTGAATTCAAATTACAAC	12700 a.u.
CTTCTGTAAATTTGATAGGTGGGTGGACGCGCCCCG	4270 a.u.
CCATCAATTTGGCTACACGTGTTGGTCTAGAACATG	16800 a.u.

Sample 4 — method: RNAcompete; molecule type: RNA; matrix: in vitro; concentration: 20 nM; setting: 7-mer, probes averaged, single round; relative to: mean of 7-mers; reading: higher = stronger binding
Target: PABPC1L2, full length, GST fusion (mouse, UniProt A0ABA7IW68)
Construct (chain): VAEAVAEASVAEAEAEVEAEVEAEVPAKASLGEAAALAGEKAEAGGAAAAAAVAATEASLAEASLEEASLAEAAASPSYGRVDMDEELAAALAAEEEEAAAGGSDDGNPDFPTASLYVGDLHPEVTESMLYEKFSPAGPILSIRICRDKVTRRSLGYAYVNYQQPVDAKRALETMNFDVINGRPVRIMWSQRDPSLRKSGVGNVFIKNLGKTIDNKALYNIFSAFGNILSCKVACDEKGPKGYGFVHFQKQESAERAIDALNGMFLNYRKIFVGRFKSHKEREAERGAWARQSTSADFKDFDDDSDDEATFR
Sequence	7-mer Z-score
UGGAACG	0.0932
GGCAGGU	0.158
AGCUACC	0.0696
CAGAUGG	0.0841
CGCACGG	-0.251
GCGAACG	-0.021
GCAAAUC	-0.021
CCGUGCU	-0.244
CCAGUAA	0.0841
AUCCCUC	-0.271
GGAUCCC	-0.282
CUCGCCG	-0.405
GAGGAAG	0.184
AAUAUCA	0.265
AAUUCUC	-0.204
AUUCUCC	-0.403
CUUGAAC	-0.17
UACCCCG	-0.374
CUCAGCG	-0.26
GCGCCGC	-0.327

Sample 5 — method: DHFR PCA, deep sequencing; matrix: yeast; added: (+)-ABA 0.032 µM; relative to: wild-type fitted maximum; reading: higher = stronger binding
Target: ABI1, truncated, D143A, DHFR fusion (Arabidopsis thaliana)
Setting: methotrexate growth selection, single substitutions
Starting sequence: PYL1, truncated, DHFR fusion (Arabidopsis thaliana); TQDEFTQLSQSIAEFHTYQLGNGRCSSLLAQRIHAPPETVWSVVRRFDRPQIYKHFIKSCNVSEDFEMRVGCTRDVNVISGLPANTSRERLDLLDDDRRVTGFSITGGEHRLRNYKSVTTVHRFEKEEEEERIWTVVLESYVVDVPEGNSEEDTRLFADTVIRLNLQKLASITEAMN; partner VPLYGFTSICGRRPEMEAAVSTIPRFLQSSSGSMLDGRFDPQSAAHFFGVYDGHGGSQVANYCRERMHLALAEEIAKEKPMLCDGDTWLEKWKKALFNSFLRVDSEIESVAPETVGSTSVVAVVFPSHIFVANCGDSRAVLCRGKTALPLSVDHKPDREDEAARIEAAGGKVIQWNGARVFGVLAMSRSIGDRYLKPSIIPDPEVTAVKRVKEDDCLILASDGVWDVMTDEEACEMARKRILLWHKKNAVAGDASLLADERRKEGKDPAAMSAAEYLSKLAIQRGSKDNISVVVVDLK
Substitution	relative binding score
E4A	15.8%
K116L	0.401%
V44K	-5.18%
E125R	28.9%
E4I	29.1%
D48W	-2.36%
T1A	25.1%
P83W	1.66%
E131V	28.4%
L164Q	1.82%
A13M	8.5%
N77L	25.3%
N149T	51%
S9N	24.2%
T101E	-1.38%
N61D	29.3%
S117F	-6.58%
P146H	-2.08%
R24K	43.4%
R24L	4.68%
V137R	-1.41%
R90E	6.35%
D159A	-0.721%
N22K	45.5%
R88C	12.2%

For quick reference, copied from above (sample 4):
Sequence	7-mer Z-score
AGCUACC	0.0696
CAGAUGG	0.0841
CGCACGG	-0.251
GCGAACG	-0.021
GCAAAUC	-0.021
CCGUGCU	-0.244
CCAGUAA	0.0841
AUCCCUC	-0.271
GGAUCCC	-0.282
CUCGCCG	-0.405
GAGGAAG	0.184
AAUAUCA	0.265
AAUUCUC	-0.204
